{"data": "Published values from different studies", "note": "A part holds a random share of what one study measured."}
{"data": "Sample 1", "target": "Interferon regulatory factor 3, full length, phosphomimetic (IRF3, Homo sapiens, UniProt Q14653, residues 1-427, S386D/S396D/S398D/S402D/T404D/S405D)", "technique": "protein-binding microarray", "molecule type": "double-stranded DNA, one strand shown", "sample": "in vitro", "concentration": "2540 nM top", "setting": "60-bp whole probe", "together with": "salmon DNA 0.4 mg/ml", "baseline": "random background probes", "reading": "higher = stronger binding", "constant ends, left off below": "GCCTAGCAC … GTGCTAGGTCTTGATTCGCTTGACGCTGCTG", "Residues (chain)": "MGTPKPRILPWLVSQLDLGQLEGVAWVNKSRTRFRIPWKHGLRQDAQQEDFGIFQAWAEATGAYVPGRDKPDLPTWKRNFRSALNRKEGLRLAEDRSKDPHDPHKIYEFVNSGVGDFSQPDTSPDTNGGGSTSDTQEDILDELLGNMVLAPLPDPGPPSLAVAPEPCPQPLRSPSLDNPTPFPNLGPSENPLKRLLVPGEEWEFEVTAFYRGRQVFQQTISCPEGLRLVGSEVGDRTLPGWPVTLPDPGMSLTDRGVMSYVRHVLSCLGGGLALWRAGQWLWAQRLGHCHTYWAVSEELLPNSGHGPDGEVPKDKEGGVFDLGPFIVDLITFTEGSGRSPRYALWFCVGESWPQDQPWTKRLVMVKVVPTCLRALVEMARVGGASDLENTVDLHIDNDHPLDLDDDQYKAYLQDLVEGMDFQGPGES"}
{"Sequence": "GACGCACTGGGTATCGGGAC", "fitted relative affinity [z-score]": -0.147}
{"Sequence": "TTAGATTTCCTTATCCTTTA", "fitted relative affinity [z-score]": 4.67}
{"Sequence": "CTTGTTTCCAGTATATTTAA", "fitted relative affinity [z-score]": 3.35}
{"Sequence": "GACGGTTTCCTCCTGCTGAC", "fitted relative affinity [z-score]": 3.97}
{"Sequence": "TTAGTTTTCCTTATCCTTTA", "fitted relative affinity [z-score]": 5.81}
{"data": "Sample 2", "target": "Histone acetyltransferase KAT6A, both winged helices, GST fusion (KAT6A, Homo sapiens, UniProt Q92794, residues 1-181)", "technique": "protein binding microarray", "molecule type": "double-stranded DNA, one strand shown", "sample": "in vitro", "concentration": "not given", "setting": "8-mer, flanks averaged, mean of 2 arrays, mostly near background", "baseline": "not given", "reading": "higher = stronger binding", "Residues (chain)": "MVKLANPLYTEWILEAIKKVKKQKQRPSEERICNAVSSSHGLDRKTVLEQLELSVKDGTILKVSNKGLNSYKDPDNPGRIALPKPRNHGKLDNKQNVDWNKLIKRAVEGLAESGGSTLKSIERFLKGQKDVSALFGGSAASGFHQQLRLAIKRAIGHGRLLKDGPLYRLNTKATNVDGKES"}
{"Sequence": "GCTCGCTA", "E-score": 0.029}
{"Sequence": "AGACCCAC", "E-score": -0.129}
{"Sequence": "CCTGGCGA", "E-score": 0.0563}
{"Sequence": "ATCGTCTC", "E-score": 0.0209}
{"data": "Sample 3", "target": "Sal-like protein 4, full length isoform B (SALL4, Homo sapiens, UniProt Q9UJQ4-2, residues 1-616)", "technique": "universal PBM", "molecule type": "double-stranded DNA, one strand shown", "sample": "in vitro", "concentration": "not given", "setting": "8-mer, flanks averaged, mean of replicates", "reading": "higher = stronger binding", "Target sequence (chain)": "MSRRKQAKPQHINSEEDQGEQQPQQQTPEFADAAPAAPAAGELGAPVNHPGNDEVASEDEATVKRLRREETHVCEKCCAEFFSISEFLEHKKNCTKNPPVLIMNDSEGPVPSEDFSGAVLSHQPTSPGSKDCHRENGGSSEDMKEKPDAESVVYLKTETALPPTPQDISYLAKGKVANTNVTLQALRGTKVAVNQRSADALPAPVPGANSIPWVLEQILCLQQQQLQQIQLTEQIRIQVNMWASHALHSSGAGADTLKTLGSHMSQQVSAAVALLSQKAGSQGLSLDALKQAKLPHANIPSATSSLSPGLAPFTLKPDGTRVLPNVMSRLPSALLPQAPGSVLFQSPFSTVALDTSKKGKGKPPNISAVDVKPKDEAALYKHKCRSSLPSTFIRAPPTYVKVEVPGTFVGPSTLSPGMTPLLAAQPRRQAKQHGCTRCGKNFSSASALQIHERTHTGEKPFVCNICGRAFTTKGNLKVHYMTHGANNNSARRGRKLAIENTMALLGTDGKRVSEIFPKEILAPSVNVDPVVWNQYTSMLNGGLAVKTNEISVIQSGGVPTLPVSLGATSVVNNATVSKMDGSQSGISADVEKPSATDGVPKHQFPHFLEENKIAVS"}
{"Sequence": "GACCCAAC", "E-score": -0.168}
{"Sequence": "AAAGCGCG", "E-score": -0.165}
{"Sequence": "ACTACGTC", "E-score": 0.0318}
{"Sequence": "AGCCTAAA", "E-score": 0.0423}
{"data": "Further values, each from its own experiment"}
{"Substance": "PhoQ, residues 284 288 289 292 302 303 NSMLDC", "target": "PhoP, residues 12 14 15 18 19 SQCLL (Escherichia coli, UniProt P23836)", "assay": "Sort-seq, refers to: YFP reporter", "system": "E. coli", "conditions": "PhoQ-PhoP variant library, together with: 10 µM Mg2+", "scale": "baseline: high Mg2+ state, higher = stronger signaling", "endpoint": "fold induction", "result": 14.7}
